Published values from different studies.
± gives the spread as reported.

Structure (SMILES) | assay | test system | conditions | scale | measurement | result
Cn1cc(-c2cccc(CN3CCC4(CC3)COc3c4ccc4c3CN([C@H]3CCC(=O)NC3=O)C4=O)c2)cn1 |  | Crbn I391V mice, spleen and thymus | dose not given, 24 h |  | tissue concentration decrease | > 90%
COc1cc(C(=O)NCCOCCOCCOCCNC(=O)c2ccc([18F])nc2)ccc1NC(=O)C1NC(CC(C)(C)C)C(C#N)(c2ccc(Cl)cc2F)C1c1cccc(Cl)c1F (stereo not shown) |  | athymic male mice, HepG2 xenograft, bladder | 4 h |  | tissue uptake | 1.6 ± 1.96 %ID/g
CCCC[C@H](NC(=O)CCOCCOCCNC(=O)CN1CCN(CC(=O)O)CCN(CC(=O)O)CCN(CC(=O)O)CC1)C(=O)N[C@H]1CC(=O)NCCCC[C@@H](C(N)=O)NC(=O)[C@H](Cc2c[nH]c3ccccc23)NC(=O)[C@H](CCCNC(=N)N)NC(=O)[C@@H](Cc2ccccc2)NC(=O)[C@H](Cc2c[nH]cn2)NC1=O [gallium-68 labelled] |  | C57BL/6J mice male B16-F10 tumour, testes | 1 h post injection, unblocked |  | tissue uptake | 0.2 ± 0.1 %ID/g
COC(=O)C[C@](O)(CCCC(C)(C)OC(C)=O)C(=O)O[C@@H]1C(OC)=C[C@]23CCCN2CCc2cc4c(cc2[C@H]13)OCO4 |  | CD1 mice, esophagus | oral, 1 mg/kg, 24 h |  | tissue concentration | not detected
C[C@]12CC[C@H](OCC[18F])C[C@H]1CC[C@@H]1[C@@H]2CC[C@]2(C)[C@@H](c3ccc(=O)oc3)CC[C@]12O |  | male BALB/c nude mice, SMMC-7721 xenograft, kidney | intravenous, 7.4 MBq, 120 min |  | tissue uptake | 3.21 ± 0.57 %ID/g
C/C=C/C=C/C/C=C/CCCCCCCc1cccc(O)c1O |  | female Kunming mice, tumour-bearing, spleen | intravenous, 10 mg/kg, 12 h |  | tissue concentration | 2070 ± 130 ng/g
CC(C)C[C@@H](NC(=O)[C@@H](CCCNC(=N)N)NC(=O)[C@@H](Cc1c[nH]cn1)NC(=O)[C@@H](Cc1c[nH]c2ccccc12)NC(=O)[C@@H](Cc1c[nH]cn1)NC(=O)[C@@H](Cc1ccccc1)NC(=O)[C@H](NC(=O)[C@@H](Cc1ccc(O)cc1)NC(=O)CNC(=O)CNC(=O)CCOCCOCCOCCNC(=O)CN1CCN(CC(=O)O)CCN(CC(=O)O)CC1)[C@H](C)O)C(=O)N[C@H](CC(N)=O)C(=O)N1CCC[C@@H]1C(=O)O [gallium-68 labelled] |  | C57BL/6 mice, male | intravenous, 1.85 MBq, 60 min | baseline: tumour over muscle | tissue ratio | 11.1 ± 2.18
C[S]1CC[S]2CC[P](CO)(CO)[99Tc+]12.[C-]#[O+].[C-]#[O+].[C-]#[O+] |  | CF-1 mice, female, urine | intravenous, 1 h |  | tissue uptake | 46.3 %ID
Cc1cc(O)cc(C)c1C[C@H](NC(=O)[C@H](N)CCCNC(=N)N)C(=O)N[C@@H](CCCCN)C(=O)N[C@@H](Cc1ccccc1)C(N)=O |  | ICR mice, acute kidney injury, kidney | 2 mg/kg, 4 h |  | tissue concentration | 740 ± 40 ng/g
[3H]c1sc(C)nc1C=C(C)C1CC2C(CCCC(C)C(O)C(C)C(=O)C(C)(C)C(O)CC(=O)O1)N2CCO (stereo not shown) | LC-MS/MS | CD2F1 mice tumour-bearing, kidney | intravenous, 2.2 nmol/kg, 24 h |  | tissue concentration | 1380 ± 40 ng/g
COc1ccc(C)cc1NC(=O)OC1CC2CCCC(C1)N2Cc1ccc(CC[18F])cc1 (stereo not shown) |  | BALB/c mice, EMT6 tumour, liver | 1 h |  | tissue uptake | 23.4 ± 2 %ID/g
CCCC[C@H](NC(=O)CN1CCC(NC(=O)CN2CCC(NC(=O)CN3CCN(CC(=O)O)CCN(CC(=O)O)CCN(CC(=O)O)CC3)CC2)CC1)C(=O)N[C@H]1CC(=O)NCCCC[C@@H](C(N)=O)NC(=O)[C@H](Cc2c[nH]c3ccccc23)NC(=O)[C@H](CCCNC(=N)N)NC(=O)[C@@H](Cc2ccccc2)NC(=O)[C@H](Cc2c[nH]cn2)NC1=O [gallium-68 labelled] |  | C57BL/6J mice male B16-F10 tumour, testes | 1 h post injection, unblocked |  | tissue uptake | 0.2 %ID/g
NC(=O)[C@@H](CCCCNC(=O)CNC(=O)CCC(=O)NCCc1c[nH]cn1)NC(=O)[C@@H](Cc1ccc(O)cc1)NC(=O)[C@@H](CCCCNC(=O)CNC(=O)CCC(=O)NCCc1c[nH]cn1)NC(=O)Cc1ccc(CN2CCN(CC(=O)O)CCN(CC(=O)O)CC2)cc1 [fluorine-18 labelled] |  | tumour-bearing nude mice, bone | intravenous, 1.04 MBq, 3 h, no pretargeting |  | tissue uptake | 0.08 ± 0.03 %ID/g

A few entries again:
Structure (SMILES) | assay | test system | conditions | scale | measurement | result
COc1ccc(C)cc1NC(=O)OC1CC2CCCC(C1)N2Cc1ccc(CC[18F])cc1 (stereo not shown) |  | BALB/c mice, EMT6 tumour, liver | 1 h |  | tissue uptake | 23.4 ± 2 %ID/g
CCCC[C@H](NC(=O)CN1CCC(NC(=O)CN2CCC(NC(=O)CN3CCN(CC(=O)O)CCN(CC(=O)O)CCN(CC(=O)O)CC3)CC2)CC1)C(=O)N[C@H]1CC(=O)NCCCC[C@@H](C(N)=O)NC(=O)[C@H](Cc2c[nH]c3ccccc23)NC(=O)[C@H](CCCNC(=N)N)NC(=O)[C@@H](Cc2ccccc2)NC(=O)[C@H](Cc2c[nH]cn2)NC1=O [gallium-68 labelled] |  | C57BL/6J mice male B16-F10 tumour, testes | 1 h post injection, unblocked |  | tissue uptake | 0.2 %ID/g
